Assay results pooled from the literature.
Compare with care: the assays were run in different laboratories. Values joined by “and” are separate records of one study, mostly repeats; a detail may differ. ± gives the spread as reported.

SMILES | tested on | assay | system | setting | how to read | quantity | value
Cc1oncc1C(=O)Nc1ccc(C(F)(F)F)cc1 | – | refers to: dihydroorotate | female CD-1 mice, pooled urine | oral, 30 mg/kg daily, 0-8 h after dose 1 | – | DHO concentration | 567 ± 35.6 µM
O=C(O)CNC(=O)Cc1ccccc1 | – | – | ventricular cardiomyocytes, C57BL/6 mouse | dose not given, 0.224 s | – | sarcomere length | 1.63 µm
Cc1ccc(C(=O)Nc2ccnc(S(N)(=O)=O)c2)c(N2CCCC(F)(F)CC2)n1 | – | – | Macaca mulatta, C-nociceptors | intravenous, 0.6 mg/kg bolus then 0.8 mg/kg/h, 90 min | – | activity-dependent slowing | 78.4 ± 5.18 % baseline
C[C@H]1O[C@@H](O[C@H]2CC[C@@]3(C)[C@@H](CC[C@]4(C)[C@@H]3C=C[C@]35OC[C@@]6(CCC(C)(C)C[C@H]63)[C@@H](O)C[C@]54C)[C@]2(C)CO)[C@H](O)[C@@H](O[C@@H]2O[C@H](CO)[C@@H](O)[C@H](O)[C@H]2O)[C@H]1O | – | Western blot, refers to: caspase3 | mice, normal control diet, liver | dose not given, high dose, unit not given | baseline: β-actin | protein level | 0.35 and 0.217 and 0.328
N#Cc1ccc2c(c1)[C@H]1CCCN(C(=O)c3ccc4[nH]cnc4c3)[C@H]1C2 | – | – | human, plasma | 240 mg, day 15, 360 h | baseline: placebo and baseline | change in fasting glucose | 3.6%
Cc1n[nH]c2ccc(-c3cc(OC[C@@H](N)Cc4ccccc4)cnc3-c3ccoc3)cc12 | – | kinase binding, competitor, MIB/MS competition, refers to: PKH3 | Candida albicans cell lysate | 100 nM | baseline: DMSO | log2 fold change | -0.246
Cn1cc(Nc2nc(N)nc(-c3cccc(-n4ccc5cc(C6CC6)cc(F)c5c4=O)c3CO)n2)cn1 | – | CD63 upregulation, refers to: CD63 | basophils (CD123+ HLA-DR-), healthy humans, whole blood ex vivo | 300 mg twice daily (multiple dose), 336 h, together with: anti-IgE | – | inhibition | 90.1%
CC1(C)CCC(CN2CCN(c3ccc(C(=O)NS(=O)(=O)c4ccc(NCC5CCOCC5)c([N+](=O)[O-])c4)c(Oc4cnc5[nH]ccc5c4)c3)CC2)=C(c2ccc(Cl)cc2)C1 | – | cell killing | normal peripheral blood CD3+ T cells, human | 24 h | – | EC50 | 2.69 µM
CC(C)(C)c1cc(C(C)(C)CO)c(O)cc1NC(=O)c1c[nH]c2ccccc2c1=O | – | – | isolated rat colon | 1 nM to 10 µM | – | contraction AUC | no effect
Cc1cc([C@H]2C[C@H]3[C@@H](CF)SC(N)=N[C@@]3(c3ccc(F)cc3F)CO2)on1 | – | refers to: Aβx-42 | Mus musculus wild-type, brain | subcutaneous, 100 mg/kg, 7 h | – | Aβ42 level | 0.47 ng/g
CC#CC(=O)N[C@H]1CCCN(c2c(F)cc(C(N)=O)c3[nH]c(C)c(C)c23)C1 | – | – | healthy volunteers, multiple ascending dose, serum | 3 mg once daily, day 21 | – | change from baseline in serum IgM | -5.3%
CN1CC[C@@H](c2c(O)cc(O)c3c(=O)cc(-c4ccc(C(F)(F)F)cc4Cl)oc23)[C@@H]1CO | – | – | human | dose not given, 110 days therapy | – | change in SPD | -28%
CC(C)NCC(O)c1ccc(O)c(O)c1 (stereo not drawn) | – | – | ventricular cardiomyocytes, C57BL/6 mouse | dose not given, 0.768 s | – | sarcomere length | 1.72 µm
CN(C(=O)n1cnc(-c2ccc[n+]([O-])c2)c1)C1CCCCC1 | – | – | rats, brain | 10 mg/kg, 4 h | – | peak anandamide level | 75.1 pmol/g
OC(CCN1CCCCC1)(c1ccccc1)C1CC2C=CC1C2 (stereo not drawn) | – | resting-state EEG | healthy elderly humans | oral, 4 mg, eyes closed, LS mean | – | power, alpha, EEG O1-Pz | 17 µV²
[177Lu+3].[Cl-].[Cl-].[Cl-] | – | immunohistochemistry | BALB/c mice, 4T1 tumour | dose not given, 7 days | – | Ki-67 positive cells | 30.4 ± 0.66%
CCN(Cc1nc2c(N)nc3cc(-c4cc[nH]n4)ccc3c2[nH]1)C(C)=O | – | Kaplan-Meier | human advanced solid tumours | dose not given | – | median progression-free survival | 1.7 months
CCN1CCN(Cc2ccc(Nc3ncc(F)c(-c4cc(F)c5nc6n(c5c4)[C@H](C)CCC6)n3)nc2)CC1 | – | – | human advanced solid tumours | 200 mg, phase Ia monotherapy RECIST 1.1 | – | disease control rate | 100%
N#Cc1ccc2c(c1)[C@H]1CCCN(C(=O)c3ccc4[nH]cnc4c3)[C@H]1C2 | – | refers to: 2 h postprandial glucose | human, Phase II trial | oral, 80 mg once daily, day 28, adjusted mean, SE | – | change from baseline | 25.5 mg/dL
N#Cc1ccn2c(-c3ccncc3)c(-c3ccc(F)cc3)nc2c1 | – | kinase binding, competitor, MIB/MS competition, refers to: SHA3 | Candida albicans cell lysate | 10 µM | baseline: DMSO | log2 fold change | -0.113
C[C@@H](Nc1cc(F)cc(F)c1)c1cc(C(=O)N(C)C)cc2c(=O)cc(N3CCOCC3)oc12 | – | immunohistochemistry, refers to: pAKT Ser473 | human, tumour biopsy | 120 mg twice daily continuous, day 13, 312 h post-dose | baseline: baseline, direction not given | change in membranous pAKT H-score | -100%
NCC(=O)Nc1cncc(-c2nn3c(=O)cc(N4CCNCC4)nc3s2)c1 | – | ADP-induced platelet aggregation, light transmission aggregometry | human, stable CAD on aspirin, platelets ex vivo | subcutaneous, 0.075 mg/kg, 5 min post-dose, together with: ADP 20 µM | – | median inhibition | 41.4%
O=C(O)c1cc(N2N=C(C(F)(F)F)/C(=C/c3ccc(-c4ccccc4)o3)C2=O)ccc1Cl | – | – | mouse, Ero1α-null platelets | 3 µM | – | platelet aggregation | inhibited

SMILES | tested on | assay | system | setting | how to read | quantity | value
C[C@H]1C[C@H]2CSC(N)=N[C@@]2(c2nc(NC(=O)c3ccc(OC(F)F)cn3)cs2)CO1 | – | refers to: total Aβ | healthy adults, plasma | 15 mg once daily, day 2 | baseline: placebo | percent change from baseline | -40.3%
C[C@H](Oc1ccc(Br)cc1-c1ccon1)C(=O)O | – | handgrip dynamometry | healthy human males | 200 mg once daily, multiple doses | baseline: placebo | peak grip force | 4.86 kg
Cc1coc([C@H]2C[C@H]3[C@@H](CF)SC(N)=N[C@@]3(c3ccc(F)cc3F)CO2)n1 | – | refers to: Aβx-42 | Mus musculus wild-type, brain | subcutaneous, 80 mg/kg, 7 h | – | Aβ42 level | 0.57 ng/g
COc1cc(Nc2ncc3c(n2)-c2ccc(Cl)cc2C(c2c(F)cccc2OC)=NC3)ccc1C(=O)O | – | – | mouse, KT-10 Wilms tumour xenograft | oral, 20.8 mg/kg, day 7 | baseline: vehicle | relative tumour volume T/C | 1
CCCCC(CC)CNC(=N)NC(=N)NCCCCCCNC(=N)NC(=N)NCC(CC)CCCC (stereo not drawn) | THP-1 | pyroptotic LDH release | – | 2 µM, 40 min, together with: LPS then nigericin | – | inhibition | -36.8%
N#Cc1ccc2c(CN3CCOCC3)cc(-c3ccc([C@H]4CCC(=O)N4)cc3)nc2c1 | – | decreased, refers to: Tnf | BTBR ob/ob mice, male, diabetic wound model, wound tissue | dose not given, 21 days | baseline: vehicle | mRNA level | decreased
Cc1cn(-c2cc(NC(=O)c3ccc(C)c(Nc4nccc(-c5cccnc5)n4)c3)cc(C(F)(F)F)c2)cn1 | – | refers to: phospho-tau 181 | human, cerebrospinal fluid | dose not given, 6 months versus baseline, unit not given | baseline: placebo | median difference in change | -1.36
Cc1cc(/C=C2\Oc3cc(OCC4CC4)ccc3C2=O)cc(C)c1OC(C)(C)C(=O)O | – | RT-PCR, refers to: ACADL, CPT1α | db/db mice, MCD diet-fed, liver | 30 mg/kg | baseline: model group | mRNA level | increased
CC[C@@H](C)[C@@H](NC(=O)[C@@H](Cc1ccc(O)cc1)NC(=O)[C@H]1CCCN1C(=O)[C@@H](CCCNC(=N)N)NC(=O)[C@H](N)Cc1c[nH]cn1)C(=O)N[C@H](C)C(=O)N[C@H](Cc1c[nH]cn1)C(=O)N[C@H](CCCNC(=N)N)C(=O)N[C@@H](C(=O)N[C@H](Cc1ccc(O)cc1)C(=O)N[C@H](CO)C(=O)N[C@H](Cc1ccccc1)C(N)=O)C(C)C | – | ex vivo flow cytometry | GL261-Luc brain tumour mice, spleen | dose not given | – | IFN-γ+ CD8+ T cell frequency | 3.17% and 3.89% and 4.22% and 2.48%
COc1nc(NCc2cn(-c3ccc(NC(=O)c4ccc(Cl)cc4)cc3)nn2)nc(OC)n1 | – | MTT | normal colonocytes, rat | 72 h | – | maximum non-toxic concentration | 1.5 ± 0.16 nM
CCO[C@H]1CCN(Cc2c(OC)cc(C)c3[nH]ccc23)[C@H](c2ccc(C(=O)O)cc2)C1 | – | refers to: PNH-type erythrocytes | PNH patients, blood | 25 mg/100 mg, week 4, mean | – | PNH red cell clone size | 65.9%
Cc1cc(-c2nc(C(=O)Nc3cc4oc(N5CCOCC5)nc4nc3N3CC[C@@H](O)C3)co2)ccn1 | – | immunohistochemistry, refers to: phospho-p38 | mouse, intracranial B16-F10 tumour | dose not given | baseline: total cells | pP38 positive cells | 11.4%
CC1(C)CCC2(CC1)N[C@@H](C(=O)N[C@@H]1CC[C@@H](C(N)=O)OC1)[C@H](c1ccnc(Cl)c1F)[C@]21C(=O)Nc2cc(Cl)ccc21 | – | – | human, solid tumours | 60 mg/day, RECIST | baseline: patients | disease control rate | 33.3%
C=CC(=O)Nc1cc(Nc2nccc(Nc3cc(Cl)c(F)cc3C(C)(C)O)n2)c(OC)cc1N1CC[C@@H](N(C)C)C1 | – | – | human, EGFR exon20ins NSCLC | concentration not given, D770_N771insSVD subtype | – | disease control rate | 90%
CCCCC1(CCCC)CN(c2ccccc2)c2cc(SC)c(OCC(=O)N[C@@H](C(=O)NCC(=O)O)c3ccccc3)cc2S(=O)(=O)C1 | – | refers to: 7α-hydroxy-4-cholesten-3-one | human, plasma | 20 mg once daily, day 11 | – | plasma C4 | 54.1 ng/mL
N=C(N)NCCC[C@H](NC(=O)[C@H](CCCNC(=N)N)NC(=O)[C@H](CCCCN)NC(=O)[C@H](CCC(N)=O)NC(=O)[C@H](CCCCN)NC(=O)[C@H](Cc1ccc(O)cc1)NC(=O)[C@@H](N)CCCCN)C(=O)N[C@@H](CO)C(=O)N[C@@H](Cc1ccc(O)cc1)C(=O)N[C@@H](CCCCN)C(=O)O | – | – | human, dentin hypersensitivity patients | topical to tooth, 5 µg/tooth repeated, day 36, phase 1/2a trial, together with: cold water stimulus | direction not given | median change in VAS score | -23 mm
Cc1noc(C)c1-c1cc(C(O)(c2ccccn2)c2ccccn2)c2nc(C3CC3)[nH]c2c1 | – | refers to: HEXIM1 expression | human patients, peripheral blood | dose not given, day 1, 24 h, together with: enzalutamide 6 mg | – | maximum induction | 63%
CN[C@@H]1COc2c(S(=O)(=O)NC(=O)Nc3c4c(cc5c3CCC5)CCC4)cnn2C1 | – | refers to: IL-1β | human participants, whole blood ex vivo | 300 mg twice daily, multiple doses, 24 h, together with: LPS/ATP | baseline: baseline | inhibition | 95.7%
COc1nc(NCc2cn(-c3ccc(C(=O)Nc4ccc(Br)cc4)cc3)nn2)nc(OC)n1 | – | MTT | normal colonocytes, rat | 72 h | – | maximum non-toxic concentration | 33.9 ± 0.43 nM
c1ccc(-c2n[nH]cc2-c2ccnc3ccccc23)nc1 | – | kinase binding, competitor, MIB/MS competition, refers to: HSL1 | Candida albicans cell lysate | 1 µM | baseline: DMSO | log2 fold change | 1.18
Cc1cc(F)cc2c(CCC(=O)N[C@@H]3C(=O)NC[C@H]3O)c(-c3ccc(F)cc3)[nH]c12 | – | – | APOL1 G2 mice, IFNγ-induced | 30 mg/kg twice daily, day 8 | – | urine albumin/creatinine ratio | 613 µg/mg and 444 µg/mg and 8090 µg/mg and 2180 µg/mg and 823 µg/mg and 458 µg/mg
CCOCc1nc(O)c(-c2nnc(Cc3ccc(Cl)cn3)o2)c(O)c1-c1c(OC)cccc1OC | – | – | instrumented anaesthetised rat | intravenous infusion, 1 µg/kg/min for 15 min, 15 min | baseline: baseline | MAP change | -1.2 ± 0.4%

Some of these lines once more:
SMILES | tested on | assay | system | setting | how to read | quantity | value
Cc1n[nH]c2ccc(-c3cc(OC[C@@H](N)Cc4ccccc4)cnc3-c3ccoc3)cc12 | – | kinase binding, competitor, MIB/MS competition, refers to: PKH3 | Candida albicans cell lysate | 100 nM | baseline: DMSO | log2 fold change | -0.246
N#Cc1ccn2c(-c3ccncc3)c(-c3ccc(F)cc3)nc2c1 | – | kinase binding, competitor, MIB/MS competition, refers to: SHA3 | Candida albicans cell lysate | 10 µM | baseline: DMSO | log2 fold change | -0.113
[177Lu+3].[Cl-].[Cl-].[Cl-] | – | immunohistochemistry | BALB/c mice, 4T1 tumour | dose not given, 7 days | – | Ki-67 positive cells | 30.4 ± 0.66%
C[C@@H](Nc1cc(F)cc(F)c1)c1cc(C(=O)N(C)C)cc2c(=O)cc(N3CCOCC3)oc12 | – | immunohistochemistry, refers to: pAKT Ser473 | human, tumour biopsy | 120 mg twice daily continuous, day 13, 312 h post-dose | baseline: baseline, direction not given | change in membranous pAKT H-score | -100%
